Assay results collected from several papers.
Each numbered part is a random draw from the data of one study; scales do not carry over between parts.

Block 1
Target: Fragile X messenger ribonucleoprotein 1, C-terminal low-complexity region (Fmr1, Mus musculus, UniProt P35922)
Technique: RNA Bind-n-Seq
Molecule type: RNA
Sample: in vitro
Concentration: 200 nM
Setting: whole 134-nt RNA, ends assumed
With: 150 mM KCl
Reference: input library
Direction: higher = stronger binding
Measurement: log2 enrichment
Shared flanks, not repeated: GGGAGUUCUACAGUCCGACGAUC … UGGAAUUCUCGGGUGUCAAGG
GCAGGAAGUAAAAACAAAUGGAAAUGCUUCGGAUAGUGGCAGGGGUGGGGGUUGCUAAGGAACGGGUGGGAUGGGAGUGGGUAAAGAGUU: 0.143
UGUGCUACACAUCGUAUGUACCGAAUCGGGGUUUUUUUGGGGUUUUUUUGGGUUUUUUUGGGAAAGUAUUAUGUUACGCCGUUCGGAUCU: 0.0969
GGUGAUGGUCAACAAGCCUCAACUGCCUCUGCUACAACUGCCAAGUUCCCCGCGUCCCACCCUCCUCUAGGUGCUCCAAGGGACCACCGG: -0.0977
CUCAAGUCCUGUGCUACACAUCGUAUGUACCGAAUCGGUUGGGUUGGGGUUGGGAAAGUAUUAUGUUACGCCGUUCGGAUCUGCACUUCC: 0.87
CUCAAGUCCUGUGCUACACAUCGUAUGUACCGAAUCGGGUUUGGGAGGGUGGGAAAGUAUUAUGUUACGCCGUUCGGAUCUGCACUUCCA: 1.32
CUCAAGUCCUGUGCUACACAUCGUAUGUACCGAAUCGGGAAGGAAGGGGAAGGGAAAGUAUUAUGUUACGCCGUUCGGAUCUGCACUUCC: 0.963
AAGUCCUGUGCUACACAUCGUAUGUACCGAAUCGGGGUUUGGGUUUGGGUUUGGGGAAAGUAUUAUGUUACGCCGUUCGGAUCUGCACUU: 0.981
CAAGUCCUGUGCUACACAUCGUAUGUACCGAAUCGGCCCGGGCCCGGGCCCGGGGAAAGUAUUAUGUUACGCCGUUCGGAUCUGCACUUC: -0.844
ACCAUGCAGGUGGGCAUCUUUGGGAAGUGGGGCAAGGGGGGGAGAGGGAGGGGGGUAACACUUUGGGAACAGGUGGUCCCAGGUCGUUUC: 0.678
UCAAGUCCUGUGCUACACAUCGUAUGUACCGAAUCGGUUUGGAAAAAAAGGUGGAAAGUAUUAUGUUACGCCGUUCGGAUCUGCACUUCC: -0.297
UAACUUUAGAGGAGGAUCUGAUGGAUAUGGCAGUGGACGUAGAUUUGGGGAUGGCUAUAAUGGGUAUGGAGGAGGACCUGGAGGUGGCAA: 0.23
UAACUUUAGAGGAGGAUCUGAUGGAUAUGGCAGUGGACGUGGAUUUGGGGAUGGCUAUAAUGGGUAUGGAGGAGGACCUGGAAGUGGCAA: 0.236
CUCAAGUCCUGUGCUACACAUCGUAUGUACCGAAUCGGGAAGGAAGGGAAGGGAAAGUAUUAUGUUACGCCGUUCGGAUCUGCACUUCCA: 0.196
CCUGUGCUACACAUCGUAUGUACCGAAUCAAACCCCCAAACCCCCCCAAAUUUUUUUAAAAAAGUAUUAUGUUACGCCGUUCGGAUCUGC: -0.153

Block 2
Target: RNA binding protein fox-1 homolog 2, RRM domain, GST-SBP tag (RBFOX2, Homo sapiens, UniProt O43251-10, residues 100-194)
Technique: RNA Bind-n-Seq
Molecule type: RNA
Sample: in vitro
Concentration: 365 nM
Setting: natural RNA segment, single round, ends assumed
Reference: no-protein control
Direction: higher = stronger binding
Measurement: RBNS enrichment (R)
Shared flanks, not repeated: GGGAGUUCUACAGUCCGACGAUC … UGGAAUUCUCGGGUGCCAA
Residues (chain): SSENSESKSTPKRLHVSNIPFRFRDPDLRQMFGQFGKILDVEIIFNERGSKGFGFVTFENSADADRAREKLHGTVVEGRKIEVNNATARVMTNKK
UGGACUACCUGAUCAAUGGCAUGUAUGCCGACUCAGAGAUUGAGGGCUUCUCGGGAGGCCAGCCUCUACCAUGGCCGCCUGUUUUGCCUCAGACCAAACUAAGUGCUUCC: 0.247
UGGGGGGUGGGGCUUGUUCCCCUGCAGUAUCUGUUCUGUGAAGUUUGUUAAAUGUAAGGAAAGCUUAAAUUCUUGUAUCUUUAAAAGAGAAAAUCUUAUUUAACCCUUUU: 1.35
UCUUAUCCAAUAUAUCUUCUCAGAUGGGAUGACUGCGGGUCAGUGUACAGGAAGAGGCAGGCACUGGCUGGCUCAGCUCCACUCGGGUGGAGUGGAAGUGGCCAGACCAU: 0.279
CACCCCGUCUGUGUCCCCCAUGAAGGCAGCUGAGCUUUCAGAGCUGGGUUCAAAAAAAAAAAUUCCAGUGUCUGUAUACAGGAGCACUUGGUUUGGGGGUUCAGGCUCUA: 0.33
GCCCUCCACUUUAUCCCAUAUUUUUGCUGUCAAAUUCUUAGUCUAGAGGAGACUGAGCUAACUUCAGCUUGCUUGCUUGCUUGCUUGCUUGCUUGCUUGCUUGCUUGCCC: 1.55
AUUUUAAGAUAGGCGAGCACACACUAAUAAUAUCUAUGCCUACCUUCUUGGGUGGACUCAACUGUAACCACAGUUUAUUAGUUGCUUAGAAGUGGAUUUUUAAAAAACAG: 0.617
AGUUUUCUCCCAUUCCGUCGUCACCCGUGCCCCUCACCCACAAUCCCCUUGUUGGACACACUGCCUUUCUCCUCCUCCUUUGCCGCUGGCAAGAGCCAGUGCCUGACUGA: 0.529
CUUGUGUUCAGUUAUAUUCUCUCUCUCUCUCAUUUCAAAUACUGCUUGACAAUUCGAAAAUGAACCAAUGAUGUGCUGUGGAAUGUGAUGGUUGUCUUCAUAUAGAGUCA: 1.91
GCUUGGCUAUGGCCCUGUGUGACUCCAGGUCCCAGGAACCUUGCCUUCGUCAUCUGUGGAUCCAUCCAGAACAGCGGUAUCUGAAGCCCAGGCCAUACUCCCUGCCUCCU: 0.215
GACAGAUCGCUUGCAUAUUUUUAAAAAUUUCUACUACAGAGACAUUCCAAUAAACUCGUUAAGCCUUCGUGUUCUCGUUGUAUUUUACCCCCGCUCCCACCGGCCCCUUC: 0.369
CAGGGCAUUCCAUCCCUAGUUCUCACAGUGAACACCUGCCUCCUCUCUCUCCUGAGAGCAAGCAUUUGUGUCAGCCACAGGAAGCAGAAGUAUUAAGGGAGGAAGUGCUG: 0.338
UUUUUUGCCAUUCCGGAAGCAAUCCAUUUUUAUUCACUUGUGUGUCAUGUAAUGGUCUUUGGCAGGAGAGAGCACUGAGUCAUUGCUGGAGUUCAGUUCAACAGAGCUGC: 0.351

Block 3
Target: RING finger protein unkempt homolog, zinc fingers 1-6, GST-SBP tag (UNK, Homo sapiens, UniProt Q9C0B0, residues 30-357)
Chain of UniProt Q9C0B0 (30-357, looked up): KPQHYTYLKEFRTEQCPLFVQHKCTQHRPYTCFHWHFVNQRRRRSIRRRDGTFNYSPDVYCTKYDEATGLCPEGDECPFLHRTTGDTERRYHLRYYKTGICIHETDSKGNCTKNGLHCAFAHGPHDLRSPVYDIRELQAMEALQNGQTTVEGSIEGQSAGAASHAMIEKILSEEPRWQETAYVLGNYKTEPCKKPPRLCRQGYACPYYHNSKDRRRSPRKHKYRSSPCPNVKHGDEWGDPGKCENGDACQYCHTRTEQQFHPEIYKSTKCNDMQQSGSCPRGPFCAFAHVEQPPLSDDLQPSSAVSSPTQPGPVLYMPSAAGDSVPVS
Technique: RNA Bind-n-Seq
Molecule type: RNA
Sample: in vitro
Concentration: not given
Setting: RNA with constant flanks, human-mouse chimeric sites, ends assumed
Reference: input RNA pool
Direction: higher = stronger binding
Measurement: bound/input enrichment
Shared flanks, not repeated: GGGAGUUCUACAGUCCGACGAUC … CAACAGAGGAUUGAGCAUCA
CUUAAUGUUAAUAUUUUUAAAGGAAGCAAGCUAAAAUGUCUGCUUUUGGUACAACACGCAUUAAUAAAAGGUUAAGUUUUGUUUUCCACUGAAGUACUAUUUAACAUCUCAGAAAAAAAC: 0.219 ratio
CUGUGUGGCUUACUAAAUGAUUUGUGAAAGAAGUUUUUCCAAGCUGUAACCCAUGCUGUUAUUAUAGUUGCUGCAAAAUGUUCUUCCUGAUAUUGAUUUUAUUUGUUAACUGAAGGUCUC: 0.741 ratio
CCCACGCCUCCUCUCCCACAGGCCCAAGAUAUAACCCACCAGUGCCUUUUGUCUUCCUGUCAGCUCUGUCAAUCACGCCUGUCCUCUCACGCCCACACCAAGUGCCCAAAGUGGGGAGGG: 0.862 ratio
CGCUGGCCCAAGCUGAUGGACUCUGAUGGCCUCCAUCUCUCAGGCACGUGUGCCUUCUCUUAGUUAUUGUUUUCGGGAUGUUAUGAACAGUAUCAUGGUGGUUUGAAAGCACCAGCUUUG: 0.521 ratio
GGAUCUUUGGGACUGUUUUACUUAAUUGGUCAUUGGUAGCUUAACAAACAUGGAGAUAAGAUUAGAAAUCUUGACAUCAACAGGUAUUAAGCAGAAAAAACCAUGGCCACGUGUCUCCUG: 0.154 ratio
CCCCACAACCAUUUGCAGGUCUGGAACUGCACUCUCUUUAAAGUUUUACAUGUAUACAUUUUAGGGCUGUAGAUUUAUUUUCCUGGUUUUGUUUUUCAUUGCUGACUUUUGAGCACAGAA: 1.69 ratio
AGAGCCCAGGAUGUUGAUGCUACAAACCCAAAUUACGAAAUUAUGUGUAUGAUCAGAGACUUCAGAGGGAGCUUGGAUUACAGACCCCUAACAACAGCAGAUCCUAUUGAUGAACAUAGG: 0.311 ratio
CACGUGUCUGCAGUACUUGAUGUGGAUUACUCUCCCACUGGGAAGGAAUUUGUGUCUGCUAGUUUCGAUAAGUCUAUUAGAAUCUUUCCUGUGGACAAGAGCCGAAGCAGGGAAGUGUAU: 1.46 ratio
AGCACAACCCCAGCAAAGCUAAGAAAUCCUUGCACAAGUGAACAAAACUGCACCAGCCCAUUUAGCUACAAAAAUGUGCUUAGUCUUACUAAUAAAGGAGAGUUUUUCAAUGAACUUGUU: 0.819 ratio
UCCCAAAUUAUAAGGCAAGAAGGAGCCUUGAGACAAAGCCUGGAAAUACAGGGAAGGCGAUAACAUUGUACAUUGGUUUACAUUUUUUCCCCCUGUGGAUUUUUCUAGAGGUCAUAGUGC: 0.342 ratio
UCUGGUCACACUCGUGUAUAUGGUGUGUGCUUUGUUGACACUUCACUGGGCAAGUUUUUCAUCGGCCAGUUUUCGGAUGACCGCCACUGUUCCAGAUUUAGGACGCUAGUGGCUCACUAU: 0.305 ratio

Block 4
Target: Interferon regulatory factor 7, full length, phosphomimetic (IRF7, Homo sapiens, UniProt Q92985, residues 1-503, S101K/S471D/S472D/S475D/S476D/S477D/S483D/S484D/S487D)
Technique: protein-binding microarray
Molecule type: double-stranded DNA, one strand shown
Sample: in vitro
Concentration: 250 nM
Setting: 60-bp whole probe
With: salmon DNA 0.4 mg/ml
Reference: random background probes
Direction: higher = stronger binding
Measurement: log fluorescence
Shared flanks, not repeated: GCCTAGCAC … GTCTTGATTCGCTTGACGCTGCTG
Target sequence (chain): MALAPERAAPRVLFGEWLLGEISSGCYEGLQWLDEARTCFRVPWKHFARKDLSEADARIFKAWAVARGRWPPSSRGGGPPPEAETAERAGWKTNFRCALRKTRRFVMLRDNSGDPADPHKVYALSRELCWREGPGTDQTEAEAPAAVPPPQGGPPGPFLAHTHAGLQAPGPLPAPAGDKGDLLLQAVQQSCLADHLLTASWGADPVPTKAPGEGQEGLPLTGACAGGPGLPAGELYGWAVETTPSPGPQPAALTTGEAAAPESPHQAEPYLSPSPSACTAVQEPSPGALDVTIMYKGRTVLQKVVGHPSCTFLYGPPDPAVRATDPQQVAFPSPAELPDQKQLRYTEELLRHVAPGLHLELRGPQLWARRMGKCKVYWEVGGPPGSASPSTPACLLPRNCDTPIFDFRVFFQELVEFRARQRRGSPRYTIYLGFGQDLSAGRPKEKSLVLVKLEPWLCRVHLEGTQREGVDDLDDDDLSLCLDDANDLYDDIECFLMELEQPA
TTAGGTTTCGGTTTCGATTAGTGCTAG: 16.1 z-score
TCATGGATATATATCATACTGTGCTAG: -0.16 z-score
GACGGTCTAGGTTTCGGGACGTGCTAG: 1.97 z-score
TTCAATTTTTGCATCGTAAGGTGCTAG: 0.0952 z-score
TTAGGTTCTGGTTTCGGTTAGTGCTAG: 9.93 z-score
TTATGTCTCCTTCTCCTTTAGTGCTAG: 0.589 z-score
CTTGCTTTATGTGTAGGTCTGTGCTAG: -0.0811 z-score
TCAAATTTGCTTTAGTCACTGTGCTAG: 0.143 z-score
GCAGATTGGGTTTCAGGGCTGTGCTAG: -0.777 z-score
TCCTGTTTGATAATTTTTTTGTGCTAG: 0.614 z-score
TTAGATTCCCTTTTCCTTTAGTGCTAG: 3.61 z-score
GTGTTTCTCAAATGTTTTGTTGTGCTA: 2.04 z-score
TTAGTTTTCGGTTTCGGTTAGTGCTAG: 12.8 z-score
GACGGTATCCATCTCCTGACGTGCTAG: -0.0769 z-score
GACTAACTGAGTATCGAGACGTGCTAG: 0.19 z-score
AATTTGAGAACGGAAACCAAGTGCTAG: 2.57 z-score
TCACGTATATTCCCTAGAACTGTGCTA: 0.659 z-score
TTACGTCTCGGTTTCGGTTAGTGCTAG: 9.29 z-score
TCAATTTTAGTTTTCATACTGTGCTAG: 0.959 z-score
TTAGAACTGAGTTTGGATTAGTGCTAG: -0.0844 z-score

Repeated from above (block 3):
CUGUGUGGCUUACUAAAUGAUUUGUGAAAGAAGUUUUUCCAAGCUGUAACCCAUGCUGUUAUUAUAGUUGCUGCAAAAUGUUCUUCCUGAUAUUGAUUUUAUUUGUUAACUGAAGGUCUC: 0.741 ratio
CCCACGCCUCCUCUCCCACAGGCCCAAGAUAUAACCCACCAGUGCCUUUUGUCUUCCUGUCAGCUCUGUCAAUCACGCCUGUCCUCUCACGCCCACACCAAGUGCCCAAAGUGGGGAGGG: 0.862 ratio
UCUGGUCACACUCGUGUAUAUGGUGUGUGCUUUGUUGACACUUCACUGGGCAAGUUUUUCAUCGGCCAGUUUUCGGAUGACCGCCACUGUUCCAGAUUUAGGACGCUAGUGGCUCACUAU: 0.305 ratio
AGAGCCCAGGAUGUUGAUGCUACAAACCCAAAUUACGAAAUUAUGUGUAUGAUCAGAGACUUCAGAGGGAGCUUGGAUUACAGACCCCUAACAACAGCAGAUCCUAUUGAUGAACAUAGG: 0.311 ratio
GGAUCUUUGGGACUGUUUUACUUAAUUGGUCAUUGGUAGCUUAACAAACAUGGAGAUAAGAUUAGAAAUCUUGACAUCAACAGGUAUUAAGCAGAAAAAACCAUGGCCACGUGUCUCCUG: 0.154 ratio
